{"data": "Values quoted from earlier work that unrelated publications cite", "note": "Each line is one published result; not all experiments were run side by side. Numbers after ± are the reported error."}
{"Compound": "Nc1ncnc2c1ncn2[C@H]1C[C@H](O)[C@@H](COP(=O)(O)OP(=O)(O)[C@H](F)P(=O)(O)O)O1", "assay": "refers to: bisphosphonate leaving group", "test system": "aqueous solution", "setting": "measured experimentally", "quantity": "pKa4", "result": 9}
{"Compound": "O=C([O-])CN1CCN(CC(=O)[O-])CCN(Cc2cc(C#Cc3ccc(OCC(=O)O)cc3)cc(C(=O)[O-])n2)CCN(CC(=O)[O-])CC1.[Eu+3]", "quantity": "Eu3+ emission quantum yield", "result": 0.17}
{"Compound": "c1csc(CNc2cc[nH]n2)c1", "test system": "male mice, plasma", "setting": "oral, 20 mg/kg, dosed as HCl salt", "quantity": "Cmax", "result": "9780 ng/mL"}
{"Compound": "CC[C@H](C)[C@H](NC(=O)CNC(=O)[C@H](CCCCN)NC(=O)[C@H](Cc1ccc(O)cc1)NC(=O)[C@H](CCCCN)NC(=O)[C@H](CC(C)C)NC(=O)[C@H](CCC(N)=O)NC(=O)[C@H](Cc1ccc(O)cc1)NC(=O)[C@H](CC(C)C)NC(=O)[C@H](CCC(=O)O)NC(=O)[C@H](CCC(N)=O)NC(=O)[C@H](Cc1c[nH]c2ccccc12)NC(=O)[C@@H](NC(=O)[C@H](CC(C)C)NC(=O)[C@H](CCCCN)NC(=O)CNC(=O)[C@H](CCCCN)NC(=O)[C@H](CC(C)C)NC(=O)[C@H](CO)NC(=O)[C@H](CC(C)C)NC(=O)[C@H](CO)NC(=O)[C@H](CC(C)C)NC(=O)[C@H](CO)NC(=O)CNC(=O)[C@H](CCCNC(=N)N)NC(=O)[C@H](CC(C)C)NC(=O)[C@H](CO)NC(=O)[C@H](CC(C)C)NC(=O)[C@H](CO)NC(=O)[C@H](CC(C)C)NC(=O)[C@H](CO)NC(=O)[C@H](CCCCN)NC(C)=O)[C@@H](C)O)C(N)=O", "test system": "Wistar rat (healthy)", "setting": "subcutaneous dorsal implant, dose not given", "quantity": "degradation time", "result": "≤ 3 weeks"}
{"Compound": "CCN(CC)C(=O)c1ccc(-c2c3ccc(=[N+](C)C)cc-3sc3cc4c(cc23)C(C)(C)CCN4C)s1", "test system": "methanol", "quantity": "absorption maximum", "result": "597 nm"}
{"Compound": "O=C1C2=C(CCN(Cc3ccccc3)C2)N2CCN=C2N1Cc1ccc(C(F)(F)F)cc1", "test system": "rats", "setting": "oral, 50 mg/kg", "quantity": "AUC(0-t)", "result": "8010 ng·h/mL"}
{"Compound": "COc1cc(F)c(C(C)C)cc1C1=C(CN2C(=O)O[C@H](c3cc(C(F)(F)F)cc(C(F)(F)F)c3)[C@@H]2C)CC(C)(C)CC1", "test system": "monkey", "setting": "intravenous", "quantity": "Vd", "result": "0.99 to 1.11 L/kg"}
{"Compound": "O=C(O)CN1CCNCCNCCN(CC(=O)O)CC1", "test system": "0.1 M KCl", "quantity": "sum of log protonation constants", "result": 26.4}
{"Compound": "O=C1C=Cc2c(c(-c3ccccc3)cn2S(=O)(=O)c2ccccc2)C1=O", "test system": "aqueous buffer with 20% DMSO", "quantity": "solubility", "result": "4.2 µM"}
{"Compound": "OCC1CCN(c2ccc(-c3cc4cc(O)ccc4[nH]3)c([18F])n2)CC1", "assay": "PET", "test system": "mice, rats, nonhuman primates", "quantity": "initial brain uptake", "result": "0.5 to 0.65 SUV"}
{"Compound": "CC(C)OC(=O)[C@H](CO)NCc1cc(Cl)c(OCc2cccc(-c3ccccc3)c2Br)cc1OCc1cccnc1", "test system": "mouse liver S9", "setting": "40 min", "quantity": "transformation", "result": "100%"}
{"Compound": "CCCCCCc1ccc(Oc2ccccc2C#N)c(O)c1", "test system": "mouse", "setting": "40 mg/kg", "quantity": "Tmax", "result": "4 h"}
{"Compound": "CN1CCC(C)(C)c2cc3c(-c4ccc(C(=S)N5CCCCC5)s4)c4ccc(=[N+](C)C)cc-4sc3cc21", "test system": "n-octanol/water", "quantity": "logP", "result": 2.6}
{"Compound": "CC(C)S(=O)(=O)c1ccc(S(=O)(=O)C(C)C)c(O)c(=O)c1O", "quantity": "pKa2", "result": 7.6}
{"Compound": "Cc1cnc(Nc2ccc(C#N)cc2)nc1Nc1c(F)cc(-c2ccc(C#N)cc2)cc1F", "test system": "human liver microsomes", "quantity": "intrinsic clearance", "result": "5 mL/min/kg"}
{"Compound": "Cc1ccc(/N=N/c2c(O)ccc3ccccc23)c(C)c1", "setting": "phenolic hydroxyl", "quantity": "pKa", "result": 11.7}
{"Compound": "Cc1ccccc1-c1cc(N2CC[N+](C)([O-])CC2)ncc1N(C)C(=O)C(C)(C)c1cc(C(F)(F)F)cc(C(F)(F)F)c1", "test system": "healthy volunteers, plasma", "setting": "oral, 450 mg, single dose, netupitant alone", "quantity": "Cmax", "result": "228 ng/mL"}
{"Compound": "Cc1[nH]nc2c1N=C(c1ccccc1Cl)c1cnc(N3CCOCC3)cc1N2", "test system": "healthy adult volunteers", "setting": "10 mg", "quantity": "tolerability", "result": "not toxic"}
{"Compound": "O=C([O-])CN1CCN(CC(=O)[O-])CCN(CC(=O)NCC2CCC(C(=O)NC(Cc3ccc4ccccc4c3)C(=O)NCCCCC(NC(=O)NC(CCC(=O)O)C(=O)O)C(=O)O)CC2)CCN(CC(=O)[O-])CC1.[68Ga+3] (centres unmarked)", "test system": "human, kidneys", "setting": "literature data", "quantity": "absorbed dose", "result": "0.206 mSv/MBq"}
{"Compound": "CN(C)c1ccc(-c2cc3cc(I)ccc3o2)cn1", "test system": "liver", "setting": "2 min", "quantity": "tissue uptake", "result": "31.7 ID%/g"}
{"Compound": "CC(C)=CCC[C@](C)(O)[C@H]1CC[C@]2(C)[C@@H]1[C@H](O)C[C@@H]1[C@@]3(C)CC[C@H](O)C(C)(C)[C@@H]3CC[C@]12C", "test system": "water", "quantity": "aqueous solubility", "result": "< 50 ng/mL"}
{"Compound": "Cc1ccc2c(c1)nc(CCN1C(=O)c3cccc4cccc(c34)C1=O)n2-c1ccncc1", "test system": "Sprague-Dawley rat", "setting": "intravenous, 2.5 mg/kg", "quantity": "clearance", "result": "2340 ± 470 mL/h/kg"}
{"Compound": "C=C[C@@H]1C[C@]1(NC(=O)[C@@H]1C[C@@H](Oc2ncc(OC)c3ccccc23)CN1C(=O)[C@@H](NC(=O)OC(C)(C)C)C(C)(C)C)C(=O)NS(=O)(=O)C1CC1", "test system": "rat", "setting": "30 mg/kg", "quantity": "clearance", "result": "588 mL/h/kg"}
{"Compound": "Oc1cccc(-c2cccc(O)n2)n1.[Cl-].[Cl-].[Ru+2].c1cnc2c(c1)c1c(c3cccnc32)OCCO1.c1cnc2c(c1)c1c(c3cccnc32)OCCO1", "quantity": "pKa1", "result": 5}
{"Compound": "Oc1ccc(O)c(CN(CCN(Cc2ccccn2)Cc2cc(O)ccc2O)Cc2ccccn2)c1.[Br-].[Br-].[Mn+2]", "setting": "concentration not given", "quantity": "reduction potential Mn(III)/Mn(II)", "result": "725 mV vs Ag/AgCl"}
{"Compound": "O=c1c2nc[nH]c2nc2ncccn12", "assay": "oxidation, substrate", "test system": "rat liver cytosol", "quantity": "Km", "result": "105 µM"}
{"Compound": "Cc1ccccc1-c1cc(N2CCNCC2)ncc1N(C)C(=O)C(C)(C)c1cc(C(F)(F)F)cc(C(F)(F)F)c1", "test system": "healthy volunteers, plasma", "setting": "oral, 450 mg, single dose, together with: palonosetron 0.75 mg", "quantity": "Tmax", "result": "19.7 h"}
{"Compound": "O=S(=O)(O)CCN(CCS(=O)(=O)O)c1ccccc1", "test system": "water", "setting": "10 µM", "quantity": "pKa", "result": 3.1}
{"Compound": "CCN(CC)c1ccc(-c2cc3c(s2)c(C(=O)OC)cc(=O)n3C)cc1", "test system": "dichloromethane", "setting": "10 µM", "quantity": "excitation maximum", "result": "463 nm"}
{"Compound": "C=C[C@@H]1C[C@]1(NC(=O)[C@@H]1C[C@@H](Oc2cc(-c3ccccc3)nc3cc(OC)ccc23)CN1C(=O)[C@@H](NC(=O)OC(C)(C)C)C(C)(C)C)C(=O)NS(=O)(=O)C1CC1", "test system": "rat, plasma", "setting": "oral, 20 mg/kg, 4 h", "quantity": "AUC", "result": "0.73 µM·h"}
{"Compound": "COCCOCCOCCOCCC(=O)NCc1cc(CNC(=O)CCOCCOCCOCCOC)cc(-c2cc3cc4nc(c(OC)c5[nH]c(cc6nc(cc2[nH]3)CC6(C)C)cc5-c2cc(CNC(=O)CCOCCOCCOCCOC)cc(CNC(=O)CCOCCOCCOCCOC)c2)CC4(C)C)c1", "test system": "DMF", "setting": "room temperature", "quantity": "Qy/B absorption intensity ratio", "result": 0.86}
{"Compound": "CN(C)c1cccc2c(S(=O)(=O)NCCNC(=O)CCCC[C@@H]3SC[C@@H]4NC(=O)N[C@@H]43)cccc12", "quantity": "fluorescence quantum yield", "result": 0.06}
{"Compound": "C=C[C@@H]1C[C@]1(NC(=O)[C@@H]1C[C@@H](Oc2nccc3c(OC)cccc23)CN1C(=O)[C@@H](NC(=O)OC(C)(C)C)C(C)(C)C)C(=O)NS(=O)(=O)C1CC1", "test system": "isolated perfused rabbit heart", "setting": "10 µM, time not given", "quantity": "sinus node recovery time change", "result": "17%"}
{"Compound": "CNCCCOc1cc(F)c(-c2c(Cl)nc3ncnn3c2N[C@@H](C)C(F)(F)F)c(F)c1", "test system": "water", "quantity": "solubility", "result": "890 µg/mL"}
{"Compound": "C=C[C@@H]1C[C@]1(NC(=O)[C@@H]1C[C@@H](Oc2ncc(OC)c3c(Cl)cccc23)CN1C(=O)[C@@H](NC(=O)OC(C)(C)C)C(C)(C)C)C(=O)NS(=O)(=O)C1CC1", "test system": "isolated perfused rabbit heart", "setting": "10 µM, time not given", "quantity": "sinus node recovery time change", "result": "104%"}
{"Compound": "Cc1ccccc1-c1cc(N2CC[N+](C)([O-])CC2)ncc1NC(=O)C(C)(C)c1cc(C(F)(F)F)cc(C(F)(F)F)c1", "test system": "urine", "setting": "intravenous, concentration not given, dosed as palonosetron", "how to read": "baseline: dose", "quantity": "urinary excretion", "result": "11.5%"}
{"Compound": "N=S(=O)(c1ccccc1)N1CCCCC1 (centres unmarked)", "test system": "PBS", "setting": "24 h, pH 7", "quantity": "recovery", "result": "100%"}
{"Compound": "Cc1nc2n(c(=O)c1CCN1CCC(c3noc4cc(F)ccc34)CC1)CCCC2O (centres unmarked)", "test system": "mouse", "quantity": "Kp,uu,brain", "result": 0.02}
{"Compound": "Cc1cc(C#N)cc(C)c1Oc1nc(NC2CCN(Cc3ccc(S(N)(=O)=O)cc3)CC2)nc2ccsc12", "setting": "pH 7.0", "quantity": "solubility", "result": "0.05 µg/mL"}
{"Compound": "CN1CCN(c2cc(-c3ccccc3CO)c(N(C)C(=O)C(C)(C)c3cc(C(F)(F)F)cc(C(F)(F)F)c3)cn2)CC1", "test system": "healthy volunteers, plasma", "setting": "oral, 450 mg, single dose, together with: palonosetron 0.75 mg", "quantity": "Tmax", "result": "11.4 h"}
{"Compound": "CC[C@H](C)[C@H](NC(=O)[C@H](Cc1ccccc1)NC(=O)[C@H](CCC(=O)O)NC(=O)[C@H](CCCCN)NC(=O)[C@H](C)NC(=O)[C@H](C)NC(=O)[C@H](CCC(N)=O)NC(=O)CNC(=O)[C@H](CCC(=O)O)NC(=O)[C@H](CC(C)C)NC(=O)[C@H](Cc1ccc(O)cc1)NC(=O)[C@H](CO)NC(=O)[C@H](CO)NC(=O)[C@@H](NC(=O)[C@H](CC(=O)O)NC(=O)[C@H](CO)NC(=O)[C@@H](NC(=O)[C@H](Cc1ccccc1)NC(=O)[C@@H](NC(=O)CNC(=O)[C@H](CCC(=O)O)NC(=O)[C@H](C)NC(=O)[C@@H](N)Cc1c[nH]cn1)[C@@H](C)O)[C@@H](C)O)C(C)C)C(=O)N[C@@H](C)C(=O)N[C@@H](Cc1c[nH]c2ccccc12)C(=O)N[C@@H](CC(C)C)C(=O)N[C@H](C(=O)N[C@@H](CCCCN)C(=O)NCC(=O)N[C@@H](CCCN=C(N)N)C(=O)NCC(=O)O)C(C)C", "quantity": "serum half-life", "result": "~2 min"}
{"note": "Some of these lines once more:"}
{"Compound": "O=C1C=Cc2c(c(-c3ccccc3)cn2S(=O)(=O)c2ccccc2)C1=O", "test system": "aqueous buffer with 20% DMSO", "quantity": "solubility", "result": "4.2 µM"}
{"Compound": "CCCCCCc1ccc(Oc2ccccc2C#N)c(O)c1", "test system": "mouse", "setting": "40 mg/kg", "quantity": "Tmax", "result": "4 h"}
{"Compound": "COc1cc(F)c(C(C)C)cc1C1=C(CN2C(=O)O[C@H](c3cc(C(F)(F)F)cc(C(F)(F)F)c3)[C@@H]2C)CC(C)(C)CC1", "test system": "monkey", "setting": "intravenous", "quantity": "Vd", "result": "0.99 to 1.11 L/kg"}
